Published values of several laboratories.
Numbered parts are unrelated; each lists some results of a single study. Values joined by “and” are separate records of one study, mostly repeats; a detail may differ.

Block 1
Structure (SMILES): COc1ccc2[nH]c3c4[nH]c5ccc(OC)cc5c4c4c(c3c2c1)C(=O)NC4=O
Effect on: binding
Tested at: 1 µM
target	method	remaining binding [%]
Aurora kinase A (AURKA, Homo sapiens, UniProt O14965)	competition with immobilised ligand	57
EIF2AK2 (Homo sapiens, UniProt P19525)		100
FLT3 (Homo sapiens, UniProt P36888, R834Q)		6.3
MAPK15 (Homo sapiens, UniProt Q8TD08)	competition with immobilised ligand	58
STK25 (Homo sapiens, UniProt O00506)	competition with immobilised ligand	89
DCLK3 (Homo sapiens, UniProt Q9C098)	competition with immobilised ligand	19

Block 2
Compound: C[C@@H]1CN(c2ccc(-c3cc(C(=O)NCCOCCOCCOCCOCCOCCOCCOCCOCCOCCNC(=O)/C=C/c4[nH]cc(C(=O)N[C@@H](CC(N)=O)c5ccc(F)c(Cl)c5)c4-c4ccc(Cl)cc4F)ccc3F)cc2NC(=O)c2c[nH]c(=O)cc2C(F)(F)F)C[C@H](C)N1C
Mode: degrader
Time: 24 h
WDR5/DCAF1: WDR5/DCAF1 (Homo sapiens, UniProt P61964+Q9Y4B6)
target	method	item	tested at	reference	remaining protein level
WDR5/DCAF1	HiBiT luminescence		1510 nM		27.9% and 24.9% and 24.2% and 28.1%
WDR5/DCAF1	HiBiT luminescence		88.1 nM		50.6% and 44.7% and 46.7% and 51.4%
WDR5 (Homo sapiens, UniProt P61964)	Jess capillary immunoassay	WDR5 over vinculin	11 nM	DMSO	87.5% and 89.5% and 91.9%
WDR5/DCAF1	HiBiT luminescence		34.2 nM		54.8% and 67.7% and 77.4% and 63.5%

Block 3
SMILES: CCN(c1nc(N)c(C(=O)N=C(N)N)nc1Cl)C(C)C
Effect on: β-arrestin recruitment
Mode: agonist
Method: PRESTO-Tango
Tested at: 10 µM
Reference: untreated
target	fold over basal
Proteinase-activated receptor 3 (F2RL2, Homo sapiens, UniProt O00254)	0.74
Leukotriene B4 receptor 2, isoform b (LTB4R2, Homo sapiens, UniProt Q9NPC1)	0.93
CHRM3 (Homo sapiens, UniProt P20309)	0.58
P2Y purinoceptor 4 (P2RY4, Homo sapiens, UniProt P51582)	0.92
OPRK1 (Homo sapiens, UniProt P41145)	1.37 fold
PTGDR (Homo sapiens, UniProt Q13258)	0.83
Galanin receptor type 3 (Homo sapiens, UniProt O60755)	1.17 fold
PTGER2 (Homo sapiens, UniProt P43116)	0.5
ADRA2B (Homo sapiens, UniProt P18089)	0.93

Block 4
SMILES: c1ccc(-c2n[nH]c3c2oc2ccccc23)cc1
Effect on: enzyme activity
Mode: inhibitor
Tested at: 0.5 µM
Reference: control
target	remaining activity [%]
IKBKE (Homo sapiens, UniProt Q14164)	101
Cyclin-dependent kinase 4, with cyclin D1 (CDK4, Homo sapiens, UniProt P11802)	87.9
CAMKK2 (Homo sapiens, UniProt Q96RR4)	87.5
STK11 (Homo sapiens, UniProt Q15831)	107
IKBKB (Homo sapiens, UniProt O14920)	92.2
CAMK2D (Homo sapiens, UniProt Q13557)	94.5
STK39 (Homo sapiens, UniProt Q9UEW8)	120
MAPK9 (Homo sapiens, UniProt P45984)	96.5
STK10 (Homo sapiens, UniProt O94804)	108
NEK2 (Homo sapiens, UniProt P51955)	99.8
TGFBR2 (Homo sapiens, UniProt P37173)	94.1
TGFBR1 (Homo sapiens, UniProt P36897)	94.9
Protein kinase C beta type, isoform beta-I (PRKCB, Homo sapiens, UniProt P05771)	103
GRK3 (Homo sapiens, UniProt P35626)	119
CHEK2 (Homo sapiens, UniProt O96017)	101
cGMP-dependent protein kinase 1, isoform beta (PRKG1, Homo sapiens, UniProt Q13976)	103
Tyrosine-protein kinase Lyn, isoform B (LYN, Homo sapiens, UniProt P07948)	102
PRKCA (Homo sapiens, UniProt P17252)	92.9
MAP3K3 (Homo sapiens, UniProt Q99759)	94.7
Cyclin-dependent kinase 5, with p25 (CDK5, Homo sapiens, UniProt Q00535)	99
OXSR1 (Homo sapiens, UniProt O95747)	101
DAPK2 (Homo sapiens, UniProt Q9UIK4)	71.2
PRKACA (Homo sapiens, UniProt P17612)	97.5
DAPK1 (Homo sapiens, UniProt P53355)	71

Block 5
Structure (SMILES): CCC(=O)N[C@@H]1CC[C@H](C(=O)N(C)c2ccc(-c3nc4ccccc4o3)cc2)C1
Effect on: cell-free assay
Method: competition with immobilised ligand
Tested at: 1 µM
target	remaining binding
PRKCE (Homo sapiens, UniProt Q02156)	93%
Tyrosine-protein kinase JAK1, JH2 (JAK1, Homo sapiens, UniProt P23458)	88%
PIK3CB (Homo sapiens, UniProt P42338)	100%
MST1R (Homo sapiens, UniProt Q04912)	100%
PIK3CD (Homo sapiens, UniProt O00329)	100%
CAMK2G (Homo sapiens, UniProt Q13555)	100%
BRAF (Homo sapiens, UniProt P15056)	96%

Block 6
Target: Diamine acetyltransferase 1 (Homo sapiens, UniProt P21673)
Mode: inhibitor
Tested at: 10 µM
Reference: control
Target sequence (P21673 1-171): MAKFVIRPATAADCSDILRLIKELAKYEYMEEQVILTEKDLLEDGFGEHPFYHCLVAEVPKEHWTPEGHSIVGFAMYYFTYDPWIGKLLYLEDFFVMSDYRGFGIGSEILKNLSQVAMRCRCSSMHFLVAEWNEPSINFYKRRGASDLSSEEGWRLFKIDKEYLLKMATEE
Structure (SMILES)	remaining activity [%]
CCOC(=O)CC(C)O (stereo not shown)	81
COc1cc(O)ccc1/C=C/C(=O)c1ccc(O)cc1	96.1
NC(=O)c1ccc[n+]([O-])c1	96.8
C=C[C@H]1[C@H](O[C@@H]2O[C@H](CO)[C@@H](O)[C@H](O)[C@H]2O)OC=C(C(=O)OC)[C@H]1CC(=O)O	87.7
C/C=C(\C)C(=O)O[C@H]1[C@H](OC(C)=O)[C@]2(CO)[C@H](O)C[C@]3(C)C(=CC[C@@H]4[C@@]5(C)CC[C@H](O[C@@H]6O[C@H](C(=O)O)[C@@H](O[C@@H]7O[C@H](CO)[C@@H](O)[C@H](O)[C@H]7O)[C@H](O)[C@H]6O[C@@H]6O[C@H](CO)[C@@H](O)[C@H](O)[C@H]6O)[C@](C)(CO)[C@@H]5CC[C@]43C)[C@@H]2CC1(C)C	96.2

Excerpt of the above (block 5):
target	remaining binding
PRKCE (Homo sapiens, UniProt Q02156)	93%
Tyrosine-protein kinase JAK1, JH2 (JAK1, Homo sapiens, UniProt P23458)	88%
PIK3CB (Homo sapiens, UniProt P42338)	100%
MST1R (Homo sapiens, UniProt Q04912)	100%
